Experimental data from different studies.
Cell line: THP-1

[Cl-].[Cl-].[Mn+2].c1ccc(CN2CCNCCN(Cc3ccccc3)CCNCC2)cc1
cytotoxicity (concentration not given): not toxic

CCOC(=O)c1c(C(=O)OC)cn(CC(c2cn(C)c3ccccc23)c2cn(C)c3ccccc23)c1C
CC50 (cell growth or viability, MTS; 72 h): > 200 µM

CCCCCc1cn(CCCCCCCCCCCOP(=O)([O-])OCC[N+](C)(C)C)nn1
cytotoxicity (up to 500 µM): not toxic

Cc1ccc(NC(=O)N2CCCN3CCC(c4ccc(C#Cc5cccnc5)cc4)C3C2)cc1 (stereo not drawn)
CC50 (cell growth or viability, ATP luminescence; 72 h): 7.17 µM

CC(=O)[O-].F[P-](F)(F)(F)(F)F.[Ni+2].c1ccc(CN2CCN3CCN(CC2)CCN(Cc2ccccc2)CC3)cc1
IC90 (cytotoxicity): > 20 µM

CCOC(=O)c1c(C#N)c(-c2cn(C)c3ccccc23)n(NC(=O)OC(C)(C)C)c1C
CC50 (cell growth or viability): 61.2 µM

CC/C(=C\c1ccc(OCC(=O)NC(C(=O)N2CCOCC2)c2ccccc2)cc1)[N+](=O)[O-] (stereo not drawn)
CC50 (cell growth or viability, MTT; 72 h, pH 7.4): 46.8 µM

CC(C)C[C@H](NC(=O)[C@H](C)NC(=O)[C@H](CCCCN)NC(=O)[C@H](C)NC(=O)[C@H](CCCNC(=N)N)NC(=O)[C@H](C)NC(=O)[C@H](CCC(N)=O)NC(=O)[C@H](CCCNC(=N)N)NC(=O)[C@H](C)NC(=O)[C@H](C)NC(=O)[C@H](C)NC(=O)[C@H](CCCNC(=N)N)NC(=O)[C@H](C)NC(=O)[C@H](Cc1ccc(O)cc1)NC(=O)CCNC(=S)Nc1ccc2c(c1)C(=O)OC21c2ccc(O)cc2Oc2cc(O)ccc21)C(=O)N[C@@H](C)C(=O)N[C@@H](CCCNC(=N)N)C(=O)N[C@@H](CCC(N)=O)C(=O)N[C@@H](CC(C)C)C(=O)NCC(=O)N[C@H](C(=O)N[C@@H](C)C(=O)N[C@@H](C)C(N)=O)C(C)C
uptake (flow cytometry; concentration not given, 1 h, with: 50 µM EIPA): increased

CCOC(=O)c1c(C#N)c(-c2c[nH]c3cccc(OCc4ccccc4)c23)n(NC(=O)OC(C)(C)C)c1C
CC50 (cell growth or viability): 43.1 µM

CC/C(=C\c1ccc(OCC(=O)NC(C(=O)N2CCSCC2)c2ccccc2)cc1)[N+](=O)[O-] (stereo not drawn)
CC50 (cell growth or viability, MTT; 72 h, pH 7.4): 2.98 µM

Cc1ccc(NC(=O)N2CCCN3CCC(c4ccc(C#CC5CCCC5O)cc4)C3C2)cc1 (stereo not drawn)
CC50 (cell growth or viability, ATP luminescence; 72 h): 20 µM

[Cl-].[Cl-].[Mn+2].c1ccc(CN2CCCNCCN(Cc3ccccc3)CCCNCC2)cc1
IC90 (cytotoxicity): > 19 µM

COc1ccc(NC(=O)N2CCCN3CCC(c4ccc(C#CC5CCCCC5)cc4)C3C2)cc1 (stereo not drawn)
CC50 (cell growth or viability, ATP luminescence; 72 h): 7.94 µM

CC(=O)[O-].CN1CCN2CCN(CC1)CCN(Cc1ccccc1)CC2.F[P-](F)(F)(F)(F)F.[Cu+2]
IC90 (cytotoxicity): > 20 µM

CC1OC(Oc2c(-c3ccc(O)cc3)oc3cc(O)cc(O)c3c2=O)C(OC(=O)C=Cc2ccc(O)cc2)C(O)C1OC(=O)C=Cc1ccc(O)cc1 (stereo not drawn)
IC50 (cell growth or viability; 48 h): > 10 µM
